Values quoted from earlier work that unrelated publications cite.
Protocols differ between the studies behind these lines.

Compound = CC[C@H](C)[C@@H](C(=O)O[C@@H](CC(C)C)C(=O)N[C@@H](CC(C)C)C(=O)N[C@@H](C)/C=C/C(=O)N1C(=O)C=C(OC)[C@@H]1C)N(C)C; target = cathepsin L; assay = enzyme activity, inhibitor; IC50 = 5 nM
Compound = C[C@@](O)(/C=C/[C@H]1CC=CC(=O)O1)[C@@H](C[C@@H](O)\C=C/C=C\C=C\CO)OP(=O)(O)O; target = protein phosphatase 1 catalytic subunit; assay = inhibitor; conditions = concentration not given; IC50 = 50000 to 70000 nM
Compound = O=C(/C=C/CCc1ccc(O)c(O)c1)CCc1ccc(O)c(O)c1; target = papain-like protease; assay = enzyme activity, inhibitor; IC50 = 4100 nM
Compound = CC[C@@H](C)[C@@H](NC(=O)[C@@H](Cc1c[nH]c2ccccc12)NC(=O)[C@@H](CCCNC(=N)N)NC(=O)[C@H](CCC(N)=O)NC(=O)[C@@H]1CCCN1C(=O)[C@H](CCCNC(=N)N)NC(=O)[C@H](CCCNC(=N)N)NC(=O)[C@H](CCCNC(=N)N)NC(=O)[C@H](CCC(N)=O)NC(=O)[C@H](CCCNC(=N)N)NC(=O)[C@H](CCCNC(=N)N)NC(=O)[C@H](CCCCN)NC(=O)[C@H](CCCCN)NC(=O)[C@H](CCCNC(=N)N)NC(=O)CN)C(=O)N[C@H](CCSC)C(=O)N[C@H](Cc1ccc(O)cc1)C(=O)N[C@H](Cc1ccccc1)C(N)=O; target = CDK6/cyclin D3; IC50 = 6000 nM
Compound = CC12C(=O)OC(=O)C1(C)C1CCC2O1 (centres unmarked); target = protein phosphatase 2A catalytic subunit; assay = enzyme activity, inhibitor; IC50 = 200 to 8000 nM
Compound = CC(C)[C@H](NC(=O)[C@H](CCCNC(=N)N)NC(=O)N[C@@H](Cc1ccccc1)C(=O)O)C(=O)N[C@H](C=O)CCCNC(=N)N; target = CTSD; IC50 = 200000 nM
Compound = CCCCCCCCCCCCCC(=O)O[C@@H]1[C@@H](C)[C@@]2(O)[C@@H](C=C(CO)C[C@]3(O)C(=O)C(C)=C[C@@H]23)[C@@H]2C(C)(C)[C@]12OC(C)=O; target = phorbol ester binding site; assay = binding; conditions = historical reference value; IC50 = 0.79 nM
Compound = O=C(N[C@H](CO)[C@H](O)c1ccc([N+](=O)[O-])cc1)C(Cl)Cl; target = mitochondrial ribosome; assay = inhibitor; IC50 = 7400 nM
Compound = C[C@@H]1CN(c2ncc(C(O)CO)cc2Cl)CCN1c1nc2c(-c3cc(F)c(F)c(F)c3)cc(C(F)(F)F)cc2[nH]1 (some centres unmarked); target = TRPV1 (rat); assay = antagonist, cell-based; conditions = with: low pH; IC50 = 0.9 nM
Compound = COc1ccc(-c2nn3c(-c4cccs4)nnc3s2)cc1OC; target = dCTPase DCTPP1; assay = inhibitor; IC50 = 20 nM
Compound = CC1=CC(=O)c2c(O)cccc2C1=O; target = TRPV2; assay = allosteric modulator; IC50 = 85 nM
Compound = Cc1noc2c1-c1ccccc1C(c1ccc(Cl)cc1)=N[C@H]2CC(N)=O; target = BRD2; assay = inhibitor; IC50 = 25 nM
Compound = CNC(=O)c1c(C)oc2cc(Oc3ccnc4cc(OCCN5CCOCC5)ccc34)ccc12; target = VEGFR-2; conditions = target plasma concentration; IC50 = 8 ng/mL
Compound = NC(=O)c1ncn([C@@H]2O[C@H](CO)[C@@H](O)[C@H]2O)n1; target = IMPDH2; assay = inhibitor; conditions = concentration not given; IC50 = 100 to 250 nM
Compound = COc1ccc2c(c1)[nH]c1c(C)nccc12; target = human DYRK1B; assay = kinase activity, inhibitor; IC50 = 28 nM
Compound = CO/C1=C\C(C)=C\[C@@H](C)[C@@H](O)[C@@H](C)C/C(C)=C/C=C/[C@H](OC)[C@@H]([C@@H](C)[C@@H](O)[C@H](C)[C@@]2(O)C[C@@H](O)[C@H](C)[C@@H](C(C)C)O2)OC1=O; target = ATP6AP1; assay = inhibitor; IC50 = 100 nM
Compound = Cc1cc(-c2ccccc2)nnc1NCCN1CCOCC1; target = acetylcholinesterase (rat striatum); assay = inhibitor; IC50 = 85000 nM
